Results gathered from unrelated publications.
Numbers after ± are the reported error.
Chain of UniProt P49721 (whole entry, looked up): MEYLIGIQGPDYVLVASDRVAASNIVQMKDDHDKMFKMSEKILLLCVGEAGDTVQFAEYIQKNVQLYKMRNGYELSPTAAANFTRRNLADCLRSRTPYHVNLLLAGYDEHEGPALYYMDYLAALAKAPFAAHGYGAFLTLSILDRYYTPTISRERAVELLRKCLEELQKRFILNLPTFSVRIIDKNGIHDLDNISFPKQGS
Chain of UniProt P21728 (whole entry, looked up): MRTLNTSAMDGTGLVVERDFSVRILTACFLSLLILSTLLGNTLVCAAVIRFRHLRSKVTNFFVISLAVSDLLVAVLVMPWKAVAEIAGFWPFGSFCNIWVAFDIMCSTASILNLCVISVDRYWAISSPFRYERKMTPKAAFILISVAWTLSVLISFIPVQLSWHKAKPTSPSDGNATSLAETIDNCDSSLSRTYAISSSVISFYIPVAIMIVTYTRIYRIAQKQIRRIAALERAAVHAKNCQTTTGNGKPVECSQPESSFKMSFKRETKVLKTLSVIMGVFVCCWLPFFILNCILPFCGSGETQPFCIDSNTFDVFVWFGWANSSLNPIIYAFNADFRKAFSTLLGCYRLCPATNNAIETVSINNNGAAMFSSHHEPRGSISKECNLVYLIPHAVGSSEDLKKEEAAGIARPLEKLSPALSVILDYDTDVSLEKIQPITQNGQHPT

SMILES = CC(C)(O)c1cc(Nc2cc(Oc3cn(C4CC4)nc3C3CCOCC3)ccn2)ccn1; test system = grade 4 glioma expansion cohort; setting = oral, 50 mg twice daily; endpoint = AST increased, grade ≥3; result = 0%
SMILES = O=S(=O)(Nc1ccccc1)c1ccc(NC(=S)Nc2ccccc2)cc1; assay = refers to: NE%; test system = female mouse, blood; setting = oral, 5 mg/kg daily, 14 days; endpoint = blood cell fraction; result = 18.8%
SMILES = C[C@H]1CN(C(=O)CC#N)[C@]12CCN(c1ncnc3[nH]ccc13)C2; test system = rat male and female; setting = oral, 3 months, repeated-dose toxicity study; endpoint = NOAEL; result = 30 mg/kg
SMILES = O[C@H]1CCCN[C@@H]1CCCn1cnc2c(Cl)c(Cl)ccc21; test system = healthy humans, plasma; setting = oral, 150 mg, with: pirfenidone 600 mg; endpoint = terminal half-life; result = 4.83 h
SMILES = CO[C@H]1C[C@@H]2CC[C@@H](C)[C@@](O)(O2)C(=O)C(=O)N2CCCC[C@H]2C(=O)O[C@H]([C@H](C)C[C@@H]2CC[C@@H](OC(=O)NCCOCCOCCOCCOCCOCCOCCOCCOCCC(=O)N3CCc4cc(Cn5nc(-c6ccc7oc(N)nc7c6)c6c(N)ncnc65)ccc4C3)[C@H](OC)C2)C[C@@H](O)[C@H](C)/C=C(\C)[C@@H](O)[C@@H](OC)C(=O)[C@H](C)C[C@H](C)/C=C/C=C/C=C/1C; assay = phase 1 dose escalation, refers to: decreased appetite; test system = advanced solid tumour patients; setting = intravenous, 16 mg weekly, grade ≥3; endpoint = TRAE incidence; result = 0%
SMILES = CC[C@H](C)[C@H](NC(=O)[C@H](Cc1ccccc1)NC(=O)[C@H](CCC(=O)O)NC(=O)[C@H](CCCNC(=N)N)NC(=O)[C@H](C)NC(=O)[C@H](C)NC(=O)[C@H](CCC(N)=O)NC(=O)[C@H](CCC(=O)O)NC(=O)[C@H](CCC(=O)O)NC(=O)[C@H](CC(C)C)NC(=O)[C@H](Cc1ccc(O)cc1)NC(=O)[C@H](CO)NC(=O)[C@H](CO)NC(=O)[C@@H](NC(=O)[C@H](CC(=O)O)NC(=O)[C@H](CO)NC(=O)[C@@H](NC(=O)[C@H](Cc1ccccc1)NC(=O)[C@@H](NC(=O)CNC(=O)[C@H](CCC(=O)O)NC(=O)[C@H](C)NC(=O)CCc1c[nH]cn1)[C@@H](C)O)[C@@H](C)O)C(C)C)C(=O)N[C@@H](C)C(=O)N[C@@H](Cc1c[nH]c2ccccc12)C(=O)N[C@@H](CC(C)C)C(=O)N[C@H](C(=O)N[C@@H](CCCNC(=N)N)C(=O)NCC(=O)N[C@@H](CCCNC(=N)N)C(=O)N[C@@H](CCCCNC(=O)COCCOCCNC(=O)COCCOCCNC(=O)CC[C@H](NC(=O)CCCCCCCCCCCCCCCCC(=O)O)C(=O)O)C(=O)NCC(=O)NCC(=O)N[C@@H](CO)C(=O)N[C@@H](CCCCNc1c(NCCCCCN(O)C(=O)CCC(=O)NCCCCCN(O)C(=O)CCC(=O)NCCCCCN(O)C(C)=O)c(=O)c1=O)C(=O)O)C(C)C [zirconium-89 labelled]; test system = rat, knee; setting = intravenous, 3 nmol/kg, 4 h; endpoint = tissue uptake; result = 0.3 %ID/g
SMILES = CCN1CCN(Cc2ccc(Nc3ncc(F)c(-c4cc(F)c5nc6n(c5c4)[C@H](C)CCC6)n3)nc2)CC1; test system = patients with advanced solid tumours; setting = dose not given, phase Ia monotherapy; endpoint = AST increased any grade; result = 25%
SMILES = N=C(N)NCCC[C@@H](NC(=O)[C@@H](N)Cc1ccccc1)C(=O)N[C@@H](Cc1ccccc1)C(=O)N[C@@H](CCCCN)C(N)=O; test system = early Huntington's disease patients, plasma; setting = subcutaneous, 15 mg daily, day 7, median; endpoint = apparent volume of distribution; result = 24.4 L
SMILES = C[C@]1(O)C[C@@](N)(c2ccc(-c3nc4n(c3-c3ccccc3)COc3ccncc3-4)cc2)C1; test system = human, advanced or metastatic solid tumours; setting = dose not given, all patients, any grade; endpoint = patients with Dyspnea TEAE; result = 11.8%
SMILES = COC[C@@H](CC(C)C)NC(=O)c1ccc(C)c(C)c1; test system = Hsd:ICR (CD-1) mouse, female, bone marrow; setting = oral, 500 mg/kg, 24 h; endpoint = PCE to total erythrocyte ratio; result = 0.522
SMILES = CCc1ccc(CC/C=C/c2ccc3c(c2)C(=O)CC3)cc1; test system = Sprague-Dawley rat, male, blood; setting = oral, 120 mg/kg/day, 14 days; endpoint = hematocrit; result = 46.8%
SMILES = O=C(Nc1ccccc1)C1CCN(C(=O)Oc2cccnc2)CC1; assay = psychotropic effects VAS; test system = healthy women; setting = 60 mg; scale = baseline: pre-dose baseline, direction not given; endpoint = change in Drowsy score; result = 32
SMILES = Cc1ccc(F)c2cc(C(=O)N[C@@H]3CCC[C@H](N4CC[C@H](N(C)S(C)(=O)=O)C4)C3)[nH]c12; test system = CD1 mouse, plasma; setting = oral, 100 mg/kg, 1 h; endpoint = plasma concentration; result = 3260 ng/mL
SMILES = CCN1[C@@H](C(=O)NC23CCC(C(=O)O)(CC2)CC3)[C@H](c2cccc(Cl)c2F)[C@]2(C(=O)Nc3cc(Cl)ccc32)C12CCCCC2; test system = patients with advanced solid tumours; setting = oral, 100 mg; endpoint = grade ≥3 Lymphocytopenia incidence; result = 18.2%
SMILES = O=C(c1ccc(Cl)cc1)N1CCN2C(=O)N(OC(=O)N3CCOc4ccccc43)C(=O)C2C1 (stereo not drawn); target or system = Proteasome Macropain subunit (Homo sapiens, UniProt P49721); assay = MS-based ABPP; test system = SW-620 conditioned medium; setting = 10 µM; scale = baseline: compound over DMSO, lower = more inhibition; endpoint = median protein ratio; result = 1.09
SMILES = CCCCCCCCCCCCCCCC(=O)N[C@@H](CCC(=O)NCCCC[C@H](NC(=O)[C@H](CC(=O)O)NC(=O)[C@H](CO)NC(=O)[C@@H](NC(=O)[C@H](Cc1ccccc1)NC(=O)[C@@H](NC(=O)CNC(=O)[C@H](CCC(N)=O)NC(=O)[C@H](CO)NC(=O)[C@@H](N)Cc1c[nH]cn1)[C@@H](C)O)[C@@H](C)O)C(=O)N[C@@H](CO)C(=O)N[C@@H](CCC(=O)O)C(=O)N[C@@H](Cc1ccc(O)cc1)C(=O)N[C@@H](CC(C)C)C(=O)N[C@@H](CC(=O)O)C(=O)N[C@@H](CO)C(=O)N[C@@H](CCC(=O)O)C(=O)N[C@@H](CCCNC(=N)N)C(=O)N[C@@H](C)C(=O)N[C@@H](CCCNC(=N)N)C(=O)N[C@@H](CC(=O)O)C(=O)N[C@@H](Cc1ccccc1)C(=O)N[C@H](C(=O)N[C@@H](C)C(=O)N[C@@H](Cc1c[nH]c2ccccc12)C(=O)N[C@@H](CC(C)C)C(=O)N[C@@H](CCC(=O)O)C(=O)N[C@@H](C)C(=O)NCC(=O)NCC(=O)O)C(C)C)C(=O)O; assay = refers to: Dyspepsia; test system = humans CrCl 20 to 30 mL/min; setting = subcutaneous, 100 µg single dose; endpoint = treatment-related adverse events; result = 0%
SMILES = Cc1cccc(Cn2nc(C3CC3)c3c(NC(=O)c4cnc5cc(OCCN6CCN(C)CC6)ccn45)cccc32)n1; assay = refers to: Anemia; test system = human platinum-resistant ovarian cancer; setting = oral, dose not given, all-causality; endpoint = adverse events incidence; result = 9.1%
SMILES = COc1cc(Nc2ncc(F)c(Nc3ccc4c(n3)NC(=O)C(C)(C)O4)n2)cc(OC)c1OC; target or system = D(1A) dopamine receptor (DRD1, Homo sapiens, UniProt P21728); endpoint = IC50; result = > 10 µM
SMILES = COc1ncnn2ccc(-c3cnc4nc(C)n(Cc5nnc([C@@H](C)F)o5)c4c3)c12; test system = human; setting = oral, dose not given, grade 4; endpoint = patients with any adverse reaction; result = 14.3%
SMILES = C[C@@H](O)[C@@H](CO)NC(=O)[C@@H](CCCNC(=N)N)NC(=O)[C@@H]1CCCN1C(=O)[C@@H]1CSSC[C@H](NC(=O)[C@H](Cc2ccccc2)NC(=O)CN2CCN(CC(=O)O)CCN(CC(=O)O)CCN(CC(=O)O)CC2)C(=O)N[C@@H](Cc2ccc(O)cc2)C(=O)N[C@@H](Cc2ccccc2)C(=O)N[C@@H](CCC(N)=O)C(=O)N[C@@H](CC(N)=O)C(=O)N1 [gallium-68 labelled]; test system = healthy Wistar rat, thyroid; setting = intravenous, 8 MBq, 120 min, individual animals; endpoint = tissue uptake; result = 0.02 %ID/g
SMILES = O=C1Nc2cc3[nH]nc(-c4ccncc4)c3cc2CN1Cc1ccccc1; assay = CTCAE v4.03; test system = human, relapsed or refractory advanced solid tumours; setting = intravenous, 6.4 mg/kg; endpoint = patients with retinal detachment; result = 11%
SMILES = CN1CC[C@@H](c2c(O)cc(O)c3c(=O)cc(-c4ccc(C(F)(F)F)cc4Cl)oc23)[C@@H]1CO; assay = refers to: Constipation; test system = B-cell malignancies or AML; setting = oral, 50 mg, continuous dosing; endpoint = patients with adverse event; result = 12.5%
SMILES = C#C[C@]1(OC(C)=O)CC[C@H]2[C@@H]3CCC4=CC(=NO)CC[C@@H]4[C@H]3CC[C@@]21CC (mixture of isomers); target or system = African green monkey cells; setting = 5 days; endpoint = CC50; result = 20.9 µM
SMILES = C[C@]1(CO)Cc2ncn(-c3ccc(C#N)c(Cl)c3)c2C(=O)O1; test system = human; setting = concentration not given, European MRD and food-effect parts; endpoint = drug-related AE incidence; result = 13.9%
SMILES = C[C@@H]1NC(=O)[C@H](CCCCNC(=O)CO/N=C/C(=O)NCCCC[C@@H]2NC(=O)[C@@H](Cc3ccccc3)NC(=O)[C@H](CC(=O)O)NC(=O)CNC(=O)[C@H](CCCNC(=N)N)NC2=O)NC(=O)CNC(=O)[C@@H]2CCCN2C(=O)[C@H](CCCCNC(=O)CO/N=C/C(=O)NCCCC[C@@H]2NC(=O)[C@@H](Cc3ccccc3)NC(=O)[C@H](CC(=O)O)NC(=O)CNC(=O)[C@H](CCCNC(=N)N)NC2=O)NC(=O)[C@H](CCCCNC(=O)CCNC(=O)CCNC(=O)CCNC(=O)[C@H](CCCCN)NC(=O)[C@H](Cc2ccccc2)NC(=O)CNC(=O)CN2CCCNCCNCCCNCC2)NC(=O)[C@H](CCCCNC(=O)CO/N=C/C(=O)NCCCC[C@@H]2NC(=O)[C@@H](Cc3ccccc3)NC(=O)[C@H](CC(=O)O)NC(=O)CNC(=O)[C@H](CCCNC(=N)N)NC2=O)NC(=O)CNC(=O)[C@@H]2CCCN2C(=O)[C@H](CCCCNC(=O)CO/N=C/C(=O)NCCCC[C@@H]2NC(=O)[C@@H](Cc3ccccc3)NC(=O)[C@H](CC(=O)O)NC(=O)CNC(=O)[C@H](CCCNC(=N)N)NC2=O)NC1=O [copper-64 labelled]; assay = biodistribution after PET; test system = mouse, U-87 MG tumour xenograft, tumor; setting = intravenous, 24 h; endpoint = tissue uptake; result = 2.55 ± 0.3 %ID/g
SMILES = C[C@@H]1OC(=O)NN=C1c1ccc(-c2ccc(F)cc2)c(C(F)(F)F)c1; assay = phase I trial, refers to: platelet count decreased all grades; test system = human patients; setting = 5 mg loading then 0.25 mg daily; endpoint = patients with adverse event; result = 0%
SMILES = Cn1c(-c2ccc(C(N)=O)cc2F)nnc1C(C)(C)Oc1c(F)cc(Cl)cc1F; test system = human; setting = oral, 10 mg, single ascending dose; endpoint = subjects with drug-related TEAE; result = 0%
SMILES = CC(C)[C@@H]1NC(=O)CNC(=O)[C@H](CC(N)=O)NC(=O)[C@H](CCCNC(=N)N)NC(=O)[C@H](Cc2ccc(O)cc2)NC(=O)[C@H](C(C)C)NC(=O)[C@@H](NC(=O)[C@@H](NC(=O)[C@H](CC(N)=O)NC(=O)[C@H](Cc2c[nH]c3ccccc23)NC(=O)[C@H](C)NC(=O)[C@H](Cc2ccccc2)NC(=O)CN)C(C)C)CSSC[C@@H](C(=O)N[C@@H](Cc2cnc[nH]2)C(=O)N[C@@H](CCCNC(=N)N)C(=O)N[C@@H](CCCNC(=N)N)C(=O)N[C@@H](C)C(=O)N[C@@H](CC(N)=O)C(N)=O)NC(=O)[C@H](C(C)C)NC(=O)[C@H](CCCNC(=N)N)NC1=O; test system = ICR mouse, serum; setting = ip, 5 mg/kg, 3 d dosing, blood day 5; endpoint = total protein; result = 53.6 ± 0.98 g/L
SMILES = COc1ccc(N2C(=O)N(c3c(C)cccc3Cl)Cc3cnc(Nc4ccc(C5CCN(C)CC5)cc4OC)nc32)nc1; target or system = RAF proto-oncogene serine/threonine-protein kinase (RAF1, Homo sapiens, UniProt P04049); assay = kinase activity, inhibitor; setting = 0.5 µM, kinase CRAF; endpoint = inhibition; result = 14%
SMILES = COc1cc2c(Oc3ccc4[nH]c(C)cc4c3F)ccnc2cc1OCC1(N)CC1; test system = paediatric refractory sarcoma patients; setting = 12 mg; endpoint = Triglyceride elevation incidence; result = 18.2%
SMILES = COc1ccc2nc3cc(Cl)ccc3c(Nc3cc(CN4CCCC4)c(O)c(CN4CCCC4)c3)c2n1; test system = mouse, blood; setting = intraperitoneal, 57 mg/kg; endpoint = mean corpuscular haemoglobin concentration; result = 370 g/L
SMILES = C[C@H]1CN(c2n[nH]c3nc(N[C@H]4CC[C@H](NS(=O)(=O)CCC(F)(F)F)CC4)ncc23)CCO1; target or system = Sodium/potassium-transporting ATPase subunit alpha-1 (ATP1A1, Homo sapiens, UniProt P05023); assay = inhibitor, Kinobeads competition profiling; setting = 0.8 µM; scale = baseline: vehicle; endpoint = relative abundance; result = 1.49
SMILES = CC(C)C[C@@H]1NC(=O)[C@H](CC(C)C)NC(=O)[C@H](Cc2c[nH]c3ccccc23)NC(=O)[C@H](CO)NC(=O)[C@H](Cc2c[nH]c3ccccc23)NC(=O)[C@@H]2CCCN2C(=O)[C@H](CC(C)C)NC(=O)[C@H](Cc2c[nH]cn2)NC(=O)[C@@H]2CCCN2C(=O)[C@H](CC(N)=O)NC(=O)[C@H](C)NC(=O)[C@H](Cc2ccc(O)cc2)NC(=O)[C@H](CS)NC(=O)[C@H](CCCCNC(=O)CN2CCN(CC(=O)O)CCN(CC(=O)O)CCN(CC(=O)O)CC2)NC1=O [lutetium-177 labelled]; test system = Balb/c mouse, female, 4T1 tumour, liver; setting = intravenous, 3.7 MBq, 24 h; endpoint = tissue uptake; result = 5.46 ± 1 %ID
